Results collected from several papers.
A part holds a random share of what one study measured.
Chain of UniProt Q05513 (whole entry, looked up): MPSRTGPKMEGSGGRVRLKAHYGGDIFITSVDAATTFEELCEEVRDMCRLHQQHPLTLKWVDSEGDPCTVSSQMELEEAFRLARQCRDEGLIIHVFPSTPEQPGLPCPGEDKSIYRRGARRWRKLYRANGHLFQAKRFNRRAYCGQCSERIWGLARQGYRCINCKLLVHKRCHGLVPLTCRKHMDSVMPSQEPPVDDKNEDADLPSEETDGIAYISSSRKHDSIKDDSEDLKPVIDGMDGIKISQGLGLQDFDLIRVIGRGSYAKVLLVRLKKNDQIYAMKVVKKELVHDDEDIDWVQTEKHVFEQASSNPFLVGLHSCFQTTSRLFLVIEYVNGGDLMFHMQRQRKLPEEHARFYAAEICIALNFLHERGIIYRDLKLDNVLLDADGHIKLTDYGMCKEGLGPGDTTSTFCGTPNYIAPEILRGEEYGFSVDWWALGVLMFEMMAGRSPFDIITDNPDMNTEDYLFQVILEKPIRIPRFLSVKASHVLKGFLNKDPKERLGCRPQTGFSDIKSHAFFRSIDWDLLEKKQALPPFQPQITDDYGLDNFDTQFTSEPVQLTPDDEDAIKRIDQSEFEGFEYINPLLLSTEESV
Chain of UniProt Q9H0K1 (whole entry, looked up): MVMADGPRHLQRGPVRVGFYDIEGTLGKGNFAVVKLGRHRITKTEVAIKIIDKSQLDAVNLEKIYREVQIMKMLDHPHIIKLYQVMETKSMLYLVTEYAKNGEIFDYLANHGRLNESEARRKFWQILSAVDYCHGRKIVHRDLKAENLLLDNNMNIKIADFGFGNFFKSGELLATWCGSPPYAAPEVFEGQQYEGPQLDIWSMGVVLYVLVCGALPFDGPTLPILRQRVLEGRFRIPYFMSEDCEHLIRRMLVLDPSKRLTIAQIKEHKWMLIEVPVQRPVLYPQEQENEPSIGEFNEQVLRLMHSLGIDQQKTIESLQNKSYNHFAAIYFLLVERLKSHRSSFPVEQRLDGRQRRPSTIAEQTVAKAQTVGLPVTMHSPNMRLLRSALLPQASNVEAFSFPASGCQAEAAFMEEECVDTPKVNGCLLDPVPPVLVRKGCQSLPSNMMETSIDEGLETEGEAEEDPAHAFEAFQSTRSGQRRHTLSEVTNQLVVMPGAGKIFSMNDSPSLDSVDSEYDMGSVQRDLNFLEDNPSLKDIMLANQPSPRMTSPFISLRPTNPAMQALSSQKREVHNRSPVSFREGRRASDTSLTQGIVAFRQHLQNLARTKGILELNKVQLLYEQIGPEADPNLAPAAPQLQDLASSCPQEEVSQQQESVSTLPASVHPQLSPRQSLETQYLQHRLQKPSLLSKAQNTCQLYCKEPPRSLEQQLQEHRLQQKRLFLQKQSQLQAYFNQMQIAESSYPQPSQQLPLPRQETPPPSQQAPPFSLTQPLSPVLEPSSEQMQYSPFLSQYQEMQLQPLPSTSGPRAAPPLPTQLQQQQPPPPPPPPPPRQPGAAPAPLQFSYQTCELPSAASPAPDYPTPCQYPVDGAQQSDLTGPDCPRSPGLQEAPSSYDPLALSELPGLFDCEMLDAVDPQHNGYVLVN
Chain of UniProt O15146 (whole entry, looked up): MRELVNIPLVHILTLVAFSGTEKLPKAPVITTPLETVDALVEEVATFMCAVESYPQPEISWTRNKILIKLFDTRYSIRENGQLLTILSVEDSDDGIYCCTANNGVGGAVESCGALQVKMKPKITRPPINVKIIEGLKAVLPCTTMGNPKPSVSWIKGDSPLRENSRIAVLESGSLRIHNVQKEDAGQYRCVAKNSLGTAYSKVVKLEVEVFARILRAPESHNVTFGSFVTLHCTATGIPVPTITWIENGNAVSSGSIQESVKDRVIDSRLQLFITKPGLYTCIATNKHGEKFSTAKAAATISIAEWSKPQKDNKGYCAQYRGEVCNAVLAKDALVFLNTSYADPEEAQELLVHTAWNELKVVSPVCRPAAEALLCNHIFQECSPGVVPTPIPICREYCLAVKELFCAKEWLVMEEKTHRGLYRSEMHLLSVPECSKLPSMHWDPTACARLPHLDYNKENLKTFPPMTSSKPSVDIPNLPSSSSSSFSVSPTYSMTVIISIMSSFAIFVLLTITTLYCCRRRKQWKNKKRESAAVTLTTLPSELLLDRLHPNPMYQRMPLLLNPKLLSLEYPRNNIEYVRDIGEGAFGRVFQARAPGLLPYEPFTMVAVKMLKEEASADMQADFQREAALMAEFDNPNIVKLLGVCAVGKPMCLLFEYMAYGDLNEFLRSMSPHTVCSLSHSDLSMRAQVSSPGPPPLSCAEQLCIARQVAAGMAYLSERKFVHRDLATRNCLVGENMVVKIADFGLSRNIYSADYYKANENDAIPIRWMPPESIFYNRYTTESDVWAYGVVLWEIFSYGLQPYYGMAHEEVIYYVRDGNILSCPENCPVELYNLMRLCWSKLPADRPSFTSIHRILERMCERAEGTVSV
Chain of UniProt P23458 (whole entry, looked up): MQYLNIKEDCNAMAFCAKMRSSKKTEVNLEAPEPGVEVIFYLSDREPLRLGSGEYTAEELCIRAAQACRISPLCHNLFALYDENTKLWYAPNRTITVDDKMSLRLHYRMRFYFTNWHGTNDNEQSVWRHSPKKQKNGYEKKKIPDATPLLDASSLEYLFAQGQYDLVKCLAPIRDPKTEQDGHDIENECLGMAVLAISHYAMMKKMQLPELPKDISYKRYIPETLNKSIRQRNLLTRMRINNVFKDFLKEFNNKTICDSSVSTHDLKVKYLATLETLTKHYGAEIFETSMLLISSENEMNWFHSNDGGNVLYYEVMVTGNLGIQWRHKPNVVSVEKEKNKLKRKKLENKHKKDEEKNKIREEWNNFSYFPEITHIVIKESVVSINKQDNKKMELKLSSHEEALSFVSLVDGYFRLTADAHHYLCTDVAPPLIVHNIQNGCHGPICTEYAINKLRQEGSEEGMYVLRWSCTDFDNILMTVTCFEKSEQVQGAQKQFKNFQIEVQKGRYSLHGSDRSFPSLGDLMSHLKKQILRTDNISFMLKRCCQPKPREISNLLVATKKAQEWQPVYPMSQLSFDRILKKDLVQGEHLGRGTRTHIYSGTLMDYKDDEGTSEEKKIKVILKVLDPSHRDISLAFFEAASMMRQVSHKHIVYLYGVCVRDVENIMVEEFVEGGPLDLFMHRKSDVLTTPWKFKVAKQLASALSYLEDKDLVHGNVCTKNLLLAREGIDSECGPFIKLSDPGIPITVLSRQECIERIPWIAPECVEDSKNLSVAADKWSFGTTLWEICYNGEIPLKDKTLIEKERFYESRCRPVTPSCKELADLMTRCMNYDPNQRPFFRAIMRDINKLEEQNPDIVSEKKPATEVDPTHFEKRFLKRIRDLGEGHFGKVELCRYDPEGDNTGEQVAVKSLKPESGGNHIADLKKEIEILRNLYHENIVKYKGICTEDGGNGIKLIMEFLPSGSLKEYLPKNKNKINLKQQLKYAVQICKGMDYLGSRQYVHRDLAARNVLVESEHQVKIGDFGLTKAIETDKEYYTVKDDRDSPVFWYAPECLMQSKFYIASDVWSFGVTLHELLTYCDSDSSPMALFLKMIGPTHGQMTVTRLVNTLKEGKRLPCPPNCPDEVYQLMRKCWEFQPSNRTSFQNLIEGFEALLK
Chain of UniProt P49760 (whole entry, looked up): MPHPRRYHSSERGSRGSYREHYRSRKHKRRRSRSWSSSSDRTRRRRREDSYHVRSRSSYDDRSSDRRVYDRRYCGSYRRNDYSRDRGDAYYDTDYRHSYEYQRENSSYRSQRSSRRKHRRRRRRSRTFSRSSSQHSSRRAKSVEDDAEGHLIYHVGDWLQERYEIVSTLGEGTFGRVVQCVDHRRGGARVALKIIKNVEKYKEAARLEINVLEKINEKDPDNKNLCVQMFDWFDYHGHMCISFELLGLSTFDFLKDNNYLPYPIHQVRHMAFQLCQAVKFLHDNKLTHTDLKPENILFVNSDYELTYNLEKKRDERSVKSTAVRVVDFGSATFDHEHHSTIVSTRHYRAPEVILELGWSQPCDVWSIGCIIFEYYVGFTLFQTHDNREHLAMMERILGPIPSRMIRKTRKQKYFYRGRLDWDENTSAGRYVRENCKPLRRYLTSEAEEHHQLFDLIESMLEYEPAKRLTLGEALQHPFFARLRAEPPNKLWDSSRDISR
Chain of UniProt Q8WU08 (whole entry, looked up): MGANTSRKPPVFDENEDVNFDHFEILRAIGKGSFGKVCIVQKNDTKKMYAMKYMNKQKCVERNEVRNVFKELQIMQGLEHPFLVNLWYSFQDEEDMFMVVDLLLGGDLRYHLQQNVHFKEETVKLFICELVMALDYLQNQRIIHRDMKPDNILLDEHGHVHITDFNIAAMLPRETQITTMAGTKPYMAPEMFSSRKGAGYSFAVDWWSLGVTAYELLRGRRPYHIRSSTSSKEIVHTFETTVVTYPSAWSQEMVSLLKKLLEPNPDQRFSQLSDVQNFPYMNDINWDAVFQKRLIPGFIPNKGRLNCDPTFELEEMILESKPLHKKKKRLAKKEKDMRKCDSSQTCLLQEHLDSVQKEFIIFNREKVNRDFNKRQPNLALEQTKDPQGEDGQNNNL

Series 1
Target: UBE2E2 UBC core domain (UniProt Q96LR5)
Chain of UniProt Q96LR5 (whole entry, looked up): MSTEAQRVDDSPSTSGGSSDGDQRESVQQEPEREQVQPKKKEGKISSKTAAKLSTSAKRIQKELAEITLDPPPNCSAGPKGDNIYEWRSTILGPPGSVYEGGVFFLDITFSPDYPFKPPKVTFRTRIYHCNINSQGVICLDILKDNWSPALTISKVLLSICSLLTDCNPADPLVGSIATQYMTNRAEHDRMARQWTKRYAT
Method: yeast two-hybrid
Sample: yeast
Notes: mostly zero background
Baseline: not given
Direction: higher = stronger interaction
Measurement: lacZ reporter activity
B1: MARCHF2 RING domain (UniProt Q9P0N8); chain RLLSTVIRALDTPSDGPFCRICHEGANGECLLSPCGCTGTLGAVHKSCLEKWLSSSNTSYCELCHTEFAVEKRPRPLTEWL
B2: NHLRC1 RING domain (UniProt Q6VVB1); chain MREAEISLLECKVCFEKFGHRQQRRPRNLSCGHVVCLACVAALAHPRTLALECPFCRRACRGCDTSD
B3: RNF32 RING domain (UniProt Q9H0A6); chain VQALRRETHECSICLAPLSAAGGQRVGAGRRSREMALLSCSHVFHHACLLALEEFSVGDRPPFHACPLCRSCYQKKILEC
B4: CBLL1 RING domain (UniProt Q75N03); chain GEKDDTPVHFCDKCGLPIKIYGRMIPCKHVFCYDCAILHEKKGDKMCPGCSDPVQRIEQCT
B5: TRIM74 RING domain (UniProt Q86UV6); chain SLLELEDWLQCPICLEVFKESLMLQCGHSYCKGCLVSLSYHLDTKVRCPMCWQVVDGSSSLP
B6: TRIM32 RING domain (UniProt Q13049); chain NLDALREVLECPICMESFTEEQLRPKLLHCGHTICRQCLEKLLASSINGVRCPFCSKITRITSLTQ
B1 (MARCHF2 RING domain): 0
B2 (NHLRC1 RING domain): 0
SNNDLASLFECPVCFDYVLPPILQCQSGHLVCSNCRPKLTCCPTCRGPLGSIRNLA (SIAH1 RING domain (UniProt Q8IUQ4)): 0
B3 (RNF32 RING domain): 0
B4 (CBLL1 RING domain): 0
FLSKVEETFQCICCQELVFRPITTVCQHNVCKDCLDRSFRAQVFSCPACRYDLGRSYAMQ (UHRF1 RING domain (UniProt Q96T88)): 0
B5 (TRIM74 RING domain): 0
B6 (TRIM32 RING domain): 0

Series 2
Structure (SMILES): O=C1NC(c2ccccn2)Sc2ccccc21 (centres unmarked)
Read-out: cell-free assay
Method: competition with immobilised ligand
Concentration: 1 µM
Measurement: remaining binding
STK32A (Homo sapiens, UniProt Q8WU08): 78%
PDGFRB (Homo sapiens, UniProt P09619): 83%
RIPK4 (Homo sapiens, UniProt P57078): 72%
EGFR (Homo sapiens, UniProt P00533, del747-752/P753S): 100%
VRK2 (Homo sapiens, UniProt Q86Y07): 77%
Aurora kinase A (AURKA, Homo sapiens, UniProt O14965): 93%
BLK (Homo sapiens, UniProt P51451): 77%

Series 3
SMILES: CCN1/C(=C/C(C)=O)Sc2ccc(OC)cc21
Read-out: enzyme activity
Action: inhibitor
Concentration: 0.5 µM
Baseline: control
Measurement: remaining activity
SIK2 (Homo sapiens, UniProt Q9H0K1): 116%
EPHB3 (Homo sapiens, UniProt P54753): 90.3%
FLT1 (Homo sapiens, UniProt P17948): 88.4%
EPHA2 (Homo sapiens, UniProt P29317): 99.1%
PRKCQ (Homo sapiens, UniProt Q04759): 95.9%
JAK2 (Homo sapiens, UniProt O60674): 97.1%
PRKCZ (Homo sapiens, UniProt Q05513): 98%
MUSK (Homo sapiens, UniProt O15146): 28.4%
Cyclin-dependent kinase 2, with cyclin E (CDK2, Homo sapiens, UniProt P24941): 87.7%
CLK2 (Homo sapiens, UniProt P49760): 25.9%
JAK1 (Homo sapiens, UniProt P23458): 98.9%
CSNK1D (Homo sapiens, UniProt P48730): 54.2%
IGF1R (Homo sapiens, UniProt P08069): 98.3%
RPS6KB2 (Homo sapiens, UniProt Q9UBS0): 107%
MAP3K20 (Homo sapiens, UniProt Q9NYL2): 91%
Cyclin-dependent kinase 5, with p35 (CDK5, Homo sapiens, UniProt Q00535): 91.1%
PAK6 (Homo sapiens, UniProt Q9NQU5): 95.6%

Series 4
Target: Centromere-binding protein 1, full length, His-tagged (CBF1, Saccharomyces cerevisiae, UniProt P17106, residues 1-351)
Chain of UniProt P17106 (whole entry, looked up): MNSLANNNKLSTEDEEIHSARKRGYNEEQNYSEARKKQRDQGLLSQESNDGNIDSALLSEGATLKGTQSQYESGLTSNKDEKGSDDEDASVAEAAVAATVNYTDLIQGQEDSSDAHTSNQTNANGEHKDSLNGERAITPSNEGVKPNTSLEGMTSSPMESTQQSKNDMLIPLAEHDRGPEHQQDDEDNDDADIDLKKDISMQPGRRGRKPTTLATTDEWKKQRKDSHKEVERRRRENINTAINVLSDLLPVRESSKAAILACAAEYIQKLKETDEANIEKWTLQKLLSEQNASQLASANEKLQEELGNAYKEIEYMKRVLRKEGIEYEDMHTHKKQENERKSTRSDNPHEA
Method: competition protein-binding microarray
Form: double-stranded DNA, one strand shown
Sample: in vitro
Concentration: 2 µM
Notes: whole 60-bp probe, lowest competitor level
With: Pho4 competitor, 0.05 µM
Direction: higher = stronger binding
Measurement: fluorescence intensity
GAAGAAAATCGCTCCCGCGTGTCCACTGGACTTTGCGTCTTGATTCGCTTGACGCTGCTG: 78.5 a.u.
TATTGGATGAGTATCCACATGGCTTGAACGCAAATGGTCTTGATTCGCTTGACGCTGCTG: 90.3 a.u.
CTCAATGGAATCCGTCATGCTCGGTAAGTGAGTCTCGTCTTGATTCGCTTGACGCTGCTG: 61.3 a.u.
AAATTACTAAGTTGCCAAGTGGGTGACGCCGTATGAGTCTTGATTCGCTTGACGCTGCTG: 64.7 a.u.
CGGGGTTAAGTTTGCTTTGTGGGTGGCTTGCAGCAGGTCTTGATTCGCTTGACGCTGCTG: 79.3 a.u.
TTGCGCTTGCCGTAGCACATGACAAACGGACTATTGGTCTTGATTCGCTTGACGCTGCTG: 380 a.u.
GGGAAGACCATCGACCACATGTGTGCATTGTAAAGAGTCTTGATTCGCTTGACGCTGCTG: 147 a.u.
CGTCCTAGTGATTGTCACTGCACTTCCATGAGGAAGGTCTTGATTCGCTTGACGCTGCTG: 96.9 a.u.

Single results of other studies
CCOC(=O)[C@@H]1CSCC(=O)N[C@@H](CC)C(=O)N(C)[C@@H](C)C(=O)N[C@H](CC(C)C)C(=O)N2CCC[C@@H]2C(=O)N(CC(C)C)CC(=O)N[C@H](CC(C)C)C(=O)N(C)[C@H](C)C(=O)N[C@@H](CC(C)C)C(=O)N1C  logD (hydrocarbon/water): 1.61

A few entries again (series 3):
CLK2 (Homo sapiens, UniProt P49760): 25.9%
JAK1 (Homo sapiens, UniProt P23458): 98.9%
CSNK1D (Homo sapiens, UniProt P48730): 54.2%
IGF1R (Homo sapiens, UniProt P08069): 98.3%
RPS6KB2 (Homo sapiens, UniProt Q9UBS0): 107%
MAP3K20 (Homo sapiens, UniProt Q9NYL2): 91%
Cyclin-dependent kinase 5, with p35 (CDK5, Homo sapiens, UniProt Q00535): 91.1%
